Results pooled from the literature.
Protocols differ between the studies behind these lines. Numbers after ± are the reported error.

| SMILES | system | setting | tissue uptake |
| --- | --- | --- | --- |
| CC(C)C[C@H](NC(=O)[C@@H](CCCCNC(=O)CCCCCNC(=O)CN1CCN(CC(=O)O)CCN(CC(=O)O)CCN(CC(=O)O)CC1)NC(=O)[C@H](Cc1ccc(O)cc1)NC(=O)[C@H](CO)NC(=O)[C@H](Cc1c[nH]c2ccccc12)NC(=O)[C@H](Cc1cnc[nH]1)NC(=O)[C@@H]1CCC(=O)N1)C(=O)N[C@@H](CCCNC(=N)N)C(=O)N1CCC[C@H]1C(=O)NCC(N)=O [indium-111 labelled] | female athymic nude mouse, stomach | intravenous, 0.037 MBq, 2 h | 0.31 ± 0.31 %ID/g |
| CC(C)C[C@H](NC(=O)CN1CCN(CC(=O)O)CCN(CC(=O)O)CC1)C(=O)N[C@@H](CC(C)C)C(=O)N[C@@H](CC(C)C)C(=O)N[C@@H](CC(C)C)C(=O)N[C@@H](CCCNC(=N)N)C(=O)N[C@H](C(=O)N[C@@H](CCCCN)C(=O)N[C@@H](CCCNC(=N)N)C(N)=O)C(C)C [copper-64 labelled] | CD1 mouse, male, heart | intravenous, 15 min | 7.4 ± 0.4 %ID/g |
| N=C(N)NCCC[C@@H]1NC(=O)[C@H](CCCCNC(=O)CCOCCOCCOCCOCCNC(=O)CC[C@H](NC(=O)CCOCCOCCOCCOCCNC(=O)CN2CCN(CC(=O)O)CCN(CC(=O)O)CCN(CC(=O)O)CC2)C(=O)NCCOCCOCCOCCOCCC(=O)NCCCC[C@@H]2NC(=O)[C@@H](Cc3ccccc3)NC(=O)[C@H](CC(=O)O)NC(=O)CNC(=O)[C@H](CCCNC(=N)N)NC2=O)NC(=O)[C@@H](Cc2ccccc2)NC(=O)[C@H](CC(=O)O)NC(=O)CNC1=O [copper-64 labelled] | athymic nu/nu mouse, female, liver | intravenous, 4 h | 1.87 ± 0.51 %ID/g |
| Cc1cc(O)cc(C)c1C[C@H](NC(=O)[C@@H]1CCCN1C(=O)[C@H](CCCNC(=N)N)NC(=O)[C@H](CCCNC(=N)N)N(C)C(=O)[C@@H]1CCCN1C(=O)[C@H](CCCCN)NC(=O)[C@@H](CC(C)C)NC(=O)[C@@H](CC(C)C)NC(=O)[C@@H](CC(C)C)NC(=O)[C@@H](CC(C)C)NC(=O)CN1CCN(CC(=O)O)CCN(CC(=O)O)CCN(CC(=O)O)CC1)C(=O)N[C@H](C(=O)N[C@@H](CC(C)C)C(=O)O)C(C)(C)C [lutetium-177 labelled] | CF-1 mouse, kidney | iv, 370 kBq, 1 h | 69 ± 6.22 %ID/g |
| CC(C)[C@H](NC(=O)[C@@H]1CCCN1C(=O)[C@H](CCCNC(=N)N)NC(=O)[C@H](CS)NC(=O)[C@H](Cc1c[nH]c2ccccc12)NC(=O)[C@H](CCCNC(=N)N)NC(=O)[C@@H](Cc1ccccc1)NC(=O)[C@H](Cc1c[nH]cn1)NC(=O)[C@H](CCC(=O)O)NC(=O)[C@H](CS)NC(=O)[C@H](CS)NC(=O)[C@H](CCCCN)NC(=O)[C@@H]1CC(=O)N[C@@H](CCCNC(=N)N)C(=O)N[C@H](Cc2ccccc2)C(=O)N[C@@H](CC(=O)O)C(=O)N[C@H](Cc2ccc(O)cc2)C(=O)N1)C(N)=O [technetium-99m labelled] | C57 mouse, female, intestine | intravenous, 0.037 MBq, 0.5 h | 2.49 ± 0.6 %ID |
| Cc1cc(O)cc(C)c1C[C@H](NC(=O)[C@@H]1CCCN1C(=O)[C@H](CCCNC(=N)N)NC(=O)[C@H](CCCNC(=N)N)N(C)C(=O)[C@@H]1CCCN1C(=O)[C@@H](CC(C)C)NC(=O)[C@@H](CC(C)C)NC(=O)[C@@H](CC(C)C)NC(=O)[C@@H](CC(C)C)NC(=O)[C@H](CCCCN)NC(=O)CN1CCN(CC(=O)O)CCN(CC(=O)O)CCN(CC(=O)O)CC1)C(=O)N[C@H](C(=O)N[C@@H](CC(C)C)C(=O)O)C(C)(C)C [lutetium-177 labelled] | CF-1 mouse, small intestine | iv, 370 kBq, 1 h | 2.72 ± 0.48 %ID/g |
| CSCC[C@H](NC(=O)[C@H](CC(C)C)NC(=O)[C@H](Cc1c[nH]cn1)NC(=O)CNC(=O)[C@@H](NC(=O)[C@H](C)NC(=O)[C@H](Cc1c[nH]c2ccccc12)NC(=O)[C@H](CCC(N)=O)NC(=O)CCOCCOCCOCCOCCNC(=O)CN1CCN(CC(=O)O)CCN(CC(=O)O)CCN(CC(=O)O)CC1)C(C)C)C(N)=O [indium-111 labelled] | Swiss nu/nu mouse, male, PC-3 tumour xenograft, tumour | intravenous, 10 pmol, 4 h | 1.6 ± 0.2 %ID/g |
| CCCC[C@H](NC(=O)CNC(=O)CNC(=O)CN1CCN(CC(=O)O)CCN(CC(=O)O)CCN(CC(=O)O)CC1)C(=O)N[C@H]1CC(=O)NCCCC[C@@H](C(N)=O)NC(=O)[C@H](Cc2c[nH]c3ccccc23)NC(=O)[C@H](CCCNC(=N)N)NC(=O)[C@@H](Cc2ccccc2)NC(=O)[C@H](Cc2c[nH]cn2)NC1=O [lutetium-177 labelled] | C57 mouse, female, brain | intravenous, 0.037 MBq, 24 h | 0.02 ± 0.02 %ID/g |
| Cc1cc(O)cc(C)c1C[C@H](NC(=O)[C@@H]1CCCN1C(=O)[C@H](CCCNC(=N)N)NC(=O)[C@H](CCCNC(=N)N)N(C)C(=O)[C@@H]1CCCN1C(=O)[C@@H](CC(C)C)NC(=O)[C@@H](CC(C)C)NC(=O)[C@H](CCCCN)NC(=O)[C@@H](CC(C)C)NC(=O)[C@@H](CC(C)C)NC(=O)CN1CCN(CC(=O)O)CCN(CC(=O)O)CCN(CC(=O)O)CC1)C(=O)N[C@H](C(=O)N[C@@H](CC(C)C)C(=O)O)C(C)(C)C [lutetium-177 labelled] | CF-1 mouse, small intestine | iv, 370 kBq, 1 h | 4.25 ± 0.75 %ID/g |
| N=C(N)NCCC[C@@H]1NC(=O)[C@H](CCCCNC(=O)CNC(=O)CNC(=O)CNC(=O)CC[C@H](NC(=O)CNC(=O)CNC(=O)CNC(=O)CN2CCN(CC(=O)O)CCN(CC(=O)O)CCN(CC(=O)O)CC2)C(=O)NCC(=O)NCC(=O)NCC(=O)NCCCC[C@@H]2NC(=O)[C@@H](Cc3ccccc3)NC(=O)[C@H](CC(=O)O)NC(=O)CNC(=O)[C@H](CCCNC(=N)N)NC2=O)NC(=O)[C@@H](Cc2ccccc2)NC(=O)[C@H](CC(=O)O)NC(=O)CNC1=O [copper-64 labelled] | athymic nude mouse, female, whole blood | iv, 0.5 h | 2.17 ± 0.45 %ID/g |

Repeated from above:
| SMILES | system | setting | tissue uptake |
| --- | --- | --- | --- |
| CC(C)[C@H](NC(=O)[C@@H]1CCCN1C(=O)[C@H](CCCNC(=N)N)NC(=O)[C@H](CS)NC(=O)[C@H](Cc1c[nH]c2ccccc12)NC(=O)[C@H](CCCNC(=N)N)NC(=O)[C@@H](Cc1ccccc1)NC(=O)[C@H](Cc1c[nH]cn1)NC(=O)[C@H](CCC(=O)O)NC(=O)[C@H](CS)NC(=O)[C@H](CS)NC(=O)[C@H](CCCCN)NC(=O)[C@@H]1CC(=O)N[C@@H](CCCNC(=N)N)C(=O)N[C@H](Cc2ccccc2)C(=O)N[C@@H](CC(=O)O)C(=O)N[C@H](Cc2ccc(O)cc2)C(=O)N1)C(N)=O [technetium-99m labelled] | C57 mouse, female, intestine | intravenous, 0.037 MBq, 0.5 h | 2.49 ± 0.6 %ID |
